Experimental data of several laboratories.
Each line is one published result; not all experiments were run side by side. Several values in a cell are separate wells, animals, samples, runs or records. ± marks the error that the study gave.
Sequence of UniProt Q9UM07 (whole entry, looked up): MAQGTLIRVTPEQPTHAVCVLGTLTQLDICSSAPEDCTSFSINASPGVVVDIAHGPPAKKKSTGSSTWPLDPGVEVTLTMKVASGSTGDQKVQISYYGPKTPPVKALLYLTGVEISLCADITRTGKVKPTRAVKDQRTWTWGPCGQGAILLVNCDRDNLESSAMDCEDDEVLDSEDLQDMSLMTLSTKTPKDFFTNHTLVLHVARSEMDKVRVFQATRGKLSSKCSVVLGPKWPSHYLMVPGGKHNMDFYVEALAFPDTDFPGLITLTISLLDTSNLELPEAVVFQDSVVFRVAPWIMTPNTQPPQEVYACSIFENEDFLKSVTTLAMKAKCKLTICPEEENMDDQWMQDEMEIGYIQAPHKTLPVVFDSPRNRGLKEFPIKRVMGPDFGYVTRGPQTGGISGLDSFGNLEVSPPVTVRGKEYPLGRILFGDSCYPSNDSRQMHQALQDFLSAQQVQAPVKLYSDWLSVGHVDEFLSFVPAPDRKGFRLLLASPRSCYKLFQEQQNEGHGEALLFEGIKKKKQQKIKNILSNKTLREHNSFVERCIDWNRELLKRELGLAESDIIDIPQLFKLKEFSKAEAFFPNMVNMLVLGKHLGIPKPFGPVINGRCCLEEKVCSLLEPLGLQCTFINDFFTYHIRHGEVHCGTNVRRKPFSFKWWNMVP
Sequence of UniProt P48730 (whole entry, looked up): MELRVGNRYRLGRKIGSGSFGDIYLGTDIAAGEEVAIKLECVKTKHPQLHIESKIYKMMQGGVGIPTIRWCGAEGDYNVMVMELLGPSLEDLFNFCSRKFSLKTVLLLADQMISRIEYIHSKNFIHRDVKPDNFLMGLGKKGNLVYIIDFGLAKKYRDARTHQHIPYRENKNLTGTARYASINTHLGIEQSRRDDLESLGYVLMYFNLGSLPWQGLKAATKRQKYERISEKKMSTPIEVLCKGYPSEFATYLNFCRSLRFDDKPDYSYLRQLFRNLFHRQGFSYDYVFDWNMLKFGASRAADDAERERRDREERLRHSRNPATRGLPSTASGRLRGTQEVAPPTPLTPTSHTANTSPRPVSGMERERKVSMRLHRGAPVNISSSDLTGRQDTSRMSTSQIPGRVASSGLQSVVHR
Sequence of UniProt P04049 (whole entry, looked up): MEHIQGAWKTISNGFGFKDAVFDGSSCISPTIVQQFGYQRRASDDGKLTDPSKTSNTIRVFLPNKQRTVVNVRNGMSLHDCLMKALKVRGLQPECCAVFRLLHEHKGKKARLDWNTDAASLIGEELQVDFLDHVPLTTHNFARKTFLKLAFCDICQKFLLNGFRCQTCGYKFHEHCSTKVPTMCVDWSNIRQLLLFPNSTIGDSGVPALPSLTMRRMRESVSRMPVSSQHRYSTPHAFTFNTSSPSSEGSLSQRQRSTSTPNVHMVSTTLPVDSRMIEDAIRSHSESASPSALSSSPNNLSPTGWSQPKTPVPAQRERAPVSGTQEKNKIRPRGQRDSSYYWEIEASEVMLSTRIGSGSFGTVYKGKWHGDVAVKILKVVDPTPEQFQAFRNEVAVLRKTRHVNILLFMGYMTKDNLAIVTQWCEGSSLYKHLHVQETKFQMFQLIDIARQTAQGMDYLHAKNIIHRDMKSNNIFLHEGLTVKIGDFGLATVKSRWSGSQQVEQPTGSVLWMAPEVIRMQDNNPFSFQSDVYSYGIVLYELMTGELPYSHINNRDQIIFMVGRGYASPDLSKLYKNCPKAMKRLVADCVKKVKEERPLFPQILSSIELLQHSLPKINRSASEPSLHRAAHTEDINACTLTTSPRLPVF
Sequence of UniProt P21554 (whole entry, unmodified, looked up): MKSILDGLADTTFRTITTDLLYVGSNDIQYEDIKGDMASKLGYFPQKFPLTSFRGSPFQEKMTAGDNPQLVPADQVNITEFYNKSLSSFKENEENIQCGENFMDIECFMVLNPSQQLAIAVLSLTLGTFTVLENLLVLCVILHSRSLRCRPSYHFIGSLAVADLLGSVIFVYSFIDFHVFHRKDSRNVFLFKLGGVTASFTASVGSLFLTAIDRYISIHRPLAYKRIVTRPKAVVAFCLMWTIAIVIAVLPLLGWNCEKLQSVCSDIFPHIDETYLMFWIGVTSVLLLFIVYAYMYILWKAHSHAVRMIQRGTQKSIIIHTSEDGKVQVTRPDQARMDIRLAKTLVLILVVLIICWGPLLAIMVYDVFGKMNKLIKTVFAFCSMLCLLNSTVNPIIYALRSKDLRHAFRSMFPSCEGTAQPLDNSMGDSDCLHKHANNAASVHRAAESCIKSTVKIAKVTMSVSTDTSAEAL
Sequence of UniProt P30989 (whole entry, looked up): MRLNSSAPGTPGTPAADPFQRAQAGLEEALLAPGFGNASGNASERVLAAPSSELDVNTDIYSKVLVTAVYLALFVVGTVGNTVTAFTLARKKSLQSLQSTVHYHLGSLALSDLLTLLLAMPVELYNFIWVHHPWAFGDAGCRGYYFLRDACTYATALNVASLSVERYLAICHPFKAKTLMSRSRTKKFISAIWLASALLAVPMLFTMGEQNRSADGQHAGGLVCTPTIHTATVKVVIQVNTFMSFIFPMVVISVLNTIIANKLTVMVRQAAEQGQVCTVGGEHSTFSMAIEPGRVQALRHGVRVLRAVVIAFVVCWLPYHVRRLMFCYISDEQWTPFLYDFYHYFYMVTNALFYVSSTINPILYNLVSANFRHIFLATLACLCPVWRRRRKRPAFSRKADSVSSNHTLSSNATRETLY
Sequence of UniProt Q9P289 (whole entry, looked up): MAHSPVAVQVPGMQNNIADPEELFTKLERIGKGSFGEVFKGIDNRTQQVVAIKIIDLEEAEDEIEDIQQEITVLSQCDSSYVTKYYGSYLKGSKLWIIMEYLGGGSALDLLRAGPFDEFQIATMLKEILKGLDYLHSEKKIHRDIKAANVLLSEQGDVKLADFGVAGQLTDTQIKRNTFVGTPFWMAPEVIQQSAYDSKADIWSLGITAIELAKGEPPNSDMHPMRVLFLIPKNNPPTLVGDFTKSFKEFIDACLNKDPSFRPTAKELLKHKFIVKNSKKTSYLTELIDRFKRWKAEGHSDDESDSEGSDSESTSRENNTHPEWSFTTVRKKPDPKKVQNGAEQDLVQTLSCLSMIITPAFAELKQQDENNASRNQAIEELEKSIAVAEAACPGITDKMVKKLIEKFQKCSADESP
Sequence of UniProt Q9H2X6 (whole entry, looked up): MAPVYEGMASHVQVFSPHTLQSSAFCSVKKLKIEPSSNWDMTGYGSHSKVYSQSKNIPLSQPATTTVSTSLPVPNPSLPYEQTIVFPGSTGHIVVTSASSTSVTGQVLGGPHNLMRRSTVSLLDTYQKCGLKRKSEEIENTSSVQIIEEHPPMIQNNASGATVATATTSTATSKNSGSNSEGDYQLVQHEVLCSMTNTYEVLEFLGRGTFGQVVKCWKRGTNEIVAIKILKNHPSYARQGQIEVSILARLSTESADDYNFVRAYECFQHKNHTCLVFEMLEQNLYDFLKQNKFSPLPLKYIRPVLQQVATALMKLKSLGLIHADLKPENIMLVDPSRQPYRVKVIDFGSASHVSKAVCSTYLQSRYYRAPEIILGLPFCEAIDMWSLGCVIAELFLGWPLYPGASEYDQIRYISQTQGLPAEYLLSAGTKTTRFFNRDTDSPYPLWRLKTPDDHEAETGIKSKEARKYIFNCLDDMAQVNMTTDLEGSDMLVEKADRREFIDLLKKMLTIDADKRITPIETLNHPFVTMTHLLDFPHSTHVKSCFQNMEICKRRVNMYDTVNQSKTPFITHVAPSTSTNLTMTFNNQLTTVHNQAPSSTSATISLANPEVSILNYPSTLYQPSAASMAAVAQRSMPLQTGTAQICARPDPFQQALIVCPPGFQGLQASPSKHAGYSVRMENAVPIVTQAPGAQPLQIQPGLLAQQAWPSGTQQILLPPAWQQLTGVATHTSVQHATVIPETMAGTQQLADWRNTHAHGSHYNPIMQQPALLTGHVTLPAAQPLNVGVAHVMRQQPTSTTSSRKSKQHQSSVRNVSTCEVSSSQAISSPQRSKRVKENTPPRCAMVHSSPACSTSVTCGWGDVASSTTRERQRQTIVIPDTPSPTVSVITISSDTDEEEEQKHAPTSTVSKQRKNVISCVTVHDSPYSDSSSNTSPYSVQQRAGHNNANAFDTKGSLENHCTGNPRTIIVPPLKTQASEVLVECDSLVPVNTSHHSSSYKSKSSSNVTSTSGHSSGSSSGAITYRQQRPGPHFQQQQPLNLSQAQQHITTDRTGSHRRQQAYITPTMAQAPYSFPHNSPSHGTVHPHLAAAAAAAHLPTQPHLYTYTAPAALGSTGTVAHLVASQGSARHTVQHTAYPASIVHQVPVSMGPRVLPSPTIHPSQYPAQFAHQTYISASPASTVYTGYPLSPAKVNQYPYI
Sequence of UniProt Q8TBX8 (whole entry, looked up): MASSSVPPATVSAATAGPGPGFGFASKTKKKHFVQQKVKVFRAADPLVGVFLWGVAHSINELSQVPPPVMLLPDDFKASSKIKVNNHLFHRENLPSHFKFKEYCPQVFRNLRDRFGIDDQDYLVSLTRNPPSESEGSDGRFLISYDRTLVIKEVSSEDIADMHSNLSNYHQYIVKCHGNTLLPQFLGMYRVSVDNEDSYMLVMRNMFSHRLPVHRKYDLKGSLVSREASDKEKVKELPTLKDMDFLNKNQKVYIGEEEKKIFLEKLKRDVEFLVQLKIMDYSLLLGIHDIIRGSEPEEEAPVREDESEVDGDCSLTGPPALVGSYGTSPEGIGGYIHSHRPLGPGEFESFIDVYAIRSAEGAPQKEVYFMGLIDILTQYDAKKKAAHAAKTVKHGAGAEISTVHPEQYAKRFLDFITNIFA
Sequence of UniProt Q80UX8 (whole entry, looked up): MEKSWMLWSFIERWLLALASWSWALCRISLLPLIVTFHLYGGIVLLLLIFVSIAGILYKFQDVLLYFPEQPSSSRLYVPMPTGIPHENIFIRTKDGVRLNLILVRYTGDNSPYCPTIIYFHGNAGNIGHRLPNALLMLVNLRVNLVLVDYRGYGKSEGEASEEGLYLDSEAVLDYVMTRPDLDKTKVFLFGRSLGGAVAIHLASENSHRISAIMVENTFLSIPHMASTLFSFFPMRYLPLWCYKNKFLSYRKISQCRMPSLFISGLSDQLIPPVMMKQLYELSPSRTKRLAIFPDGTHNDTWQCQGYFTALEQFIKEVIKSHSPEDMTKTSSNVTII

| SMILES | target or system | assay | system | conditions | how to read | measurement | result |
| --- | --- | --- | --- | --- | --- | --- | --- |
| CN(C)[C@H]1C[C@@]23CC[C@@]4(O2)C(=CC[C@]2(C)[C@@H](c5ccc6ccncc6c5)CC[C@H]24)C=C3[C@@H](O)[C@@H]1O | PIP4K2C (Homo sapiens, UniProt Q8TBX8) | ATP probe labelling, inhibitor, KiNativ profiling |  | 1 µM |  | inhibition | -9.5% |
| COc1ccccc1-c1n[nH]c2nc(N[C@H]3CC[C@H](NS(=O)(=O)CC(C)C)CC3)ncc12 |  | bead binding, competition bead pull-down, measured: LINJ.29.0790 | Leishmania donovani extract | 10 µM | relative to: vehicle | relative abundance | 0.99 |
| CS(C)(=O)=Nc1ccc(-c2ccc(-c3nc4cc(O[C@@H]5CO[C@H]6[C@@H]5OC[C@H]6O)[nH]c4cc3F)cc2)cc1 | STK26 (Homo sapiens, UniProt Q9P289) | enzyme activity, inhibitor |  | 10 µM |  | inhibition | 11% |
| CC(C)CC(O)(CC(C)C)c1cn(C(=O)N2CCCC2)nn1 | Protein ABHD13 (Abhd13, Mus musculus, UniProt Q80UX8) | probe labelling, inhibitor, competitive ABPP-SILAC, measured: Abhd13 | mouse T cells | concentration not given, 4 h, in situ, protein level | relative to: treated over DMSO, lower = more inhibition | SILAC ratio | 1.29 |
| O=C1NC(=O)c2c1c1cc(F)c[n+]3c1c1c2c2cc(O)ccc2[n]1[Ru-4]312([N]=C=S)[S+]3CC[S+]1CC[S+]2CC3 (stereo not drawn) | RAF1 (Homo sapiens, UniProt P04049) | enzyme activity |  | 100 nM, human enzyme, together with: 10 µM ATP | relative to: untreated | remaining activity | 100% |
| COc1ccccc1-c1n[nH]c2nc(NC3CCN(C(=O)Cc4ccc(F)cc4F)CC3)ncc12 |  | bead binding, competition bead pull-down, measured: LINJ.30.0080 | Leishmania donovani axenic amastigote extract | 10 µM | relative to: vehicle | relative abundance | 0.11 |
| O=C1NC2(CC2)COc2ncc(F)cc2[C@H]2COCCN2c2ccn3ncc1c3n2 |  |  | Sprague-Dawley rat, male, adrenals | oral, 20 mg/kg/day, 4 weeks dosing, end of recovery |  | organ-to-brain weight ratio | 2.96 ± 0.36% |
| Cc1ccc2c(C(C[N+](=O)[O-])c3cccs3)c(-c3ccccc3)[nH]c2c1 (stereo not drawn) | CNR1 (Homo sapiens, UniProt P21554, I245L) | β-arrestin recruitment, agonist, luciferase |  |  |  | Emax | 104% |
| Cc1cc(C(=O)Nc2nc3cccc(C)c3n2[C@H]2CCCCN(C(=O)/C=C/CN(C)C)C2)ccn1 | Trypanosoma brucei | cell growth, Alamar Blue | 2T1 overexpressing Tb927.10.10350 |  | relative to: parental 2T1 | EC50 fold shift | 1.16 fold and 0.8 fold |
| CC(C)(C)C(=O)OCOP(=O)(OCOC(=O)C(C)(C)C)C1CCCN(O)C1=O (stereo not drawn) | LOX IMVI |  |  |  |  | Log10LC50 | > -4 log M |
| Cc1sc2c(c1C)C(c1ccc(Cl)cc1)=NC(CC(=O)OC(C)(C)C)c1nnc(C)n1-2 (stereo not drawn) | NTSR1 (Homo sapiens, UniProt P30989) | ligand displacement, radioligand |  | 1 µM |  | remaining binding | 104% |
| N[C@H](C(=O)N1CCCC1)C1CCN(c2nccc3c(-c4ncc(Cl)cc4Cl)cccc23)CC1 | PADI4 (Homo sapiens, UniProt Q9UM07) | thermal shift |  | 0.00953 µM |  | melting temperature | 53.2 °C and 53.5 °C |
| CC(C)[C@H]1NC(=O)C[C@H]2/C=C/CCSSC[C@@H](NC1=O)C(=O)N[C@H](Cc1cccc3ccccc13)C(=O)NCC(=O)O2 | HIPK2 (Homo sapiens, UniProt Q9H2X6) | enzyme activity, inhibitor |  | 10 µM |  | inhibition | -1% |
| Nc1ccc(/C=C/C(=O)N2CCc3c(oc4c(-c5ccc(F)cc5)cc(-c5ccc(C(=O)N6CCC(F)(F)CC6)cn5)cc34)C2)cn1 | CSNK1D (Homo sapiens, UniProt P48730) | binding, competition with immobilised ligand |  | 1 µM |  | remaining binding | 100% |
| CONC(=O)[C@H]1[C@@H](O)[C@@]2(O)c3c(OC)cc(OC)cc3O[C@@]2(c2ccc(OC)cc2)[C@@H]1c1ccccc1 |  | cap-dependent firefly luciferase translation | Krebs-2 cell extract | concentration not given, (UC)10-containing reporter, tested concentrations |  | translation inhibition | no inhibition |

For quick reference, copied from above:
| SMILES | target or system | assay | system | conditions | how to read | measurement | result |
| --- | --- | --- | --- | --- | --- | --- | --- |
| CC(C)[C@H]1NC(=O)C[C@H]2/C=C/CCSSC[C@@H](NC1=O)C(=O)N[C@H](Cc1cccc3ccccc13)C(=O)NCC(=O)O2 | HIPK2 (Homo sapiens, UniProt Q9H2X6) | enzyme activity, inhibitor |  | 10 µM |  | inhibition | -1% |
| Nc1ccc(/C=C/C(=O)N2CCc3c(oc4c(-c5ccc(F)cc5)cc(-c5ccc(C(=O)N6CCC(F)(F)CC6)cn5)cc34)C2)cn1 | CSNK1D (Homo sapiens, UniProt P48730) | binding, competition with immobilised ligand |  | 1 µM |  | remaining binding | 100% |
